Measurements of several laboratories.
Compare with care: the assays were run in different laboratories. Values joined by “and” are separate records of one study, mostly repeats; a detail may differ. Numbers after ± are the reported error.
Chain of UniProt P49760 (whole entry, looked up): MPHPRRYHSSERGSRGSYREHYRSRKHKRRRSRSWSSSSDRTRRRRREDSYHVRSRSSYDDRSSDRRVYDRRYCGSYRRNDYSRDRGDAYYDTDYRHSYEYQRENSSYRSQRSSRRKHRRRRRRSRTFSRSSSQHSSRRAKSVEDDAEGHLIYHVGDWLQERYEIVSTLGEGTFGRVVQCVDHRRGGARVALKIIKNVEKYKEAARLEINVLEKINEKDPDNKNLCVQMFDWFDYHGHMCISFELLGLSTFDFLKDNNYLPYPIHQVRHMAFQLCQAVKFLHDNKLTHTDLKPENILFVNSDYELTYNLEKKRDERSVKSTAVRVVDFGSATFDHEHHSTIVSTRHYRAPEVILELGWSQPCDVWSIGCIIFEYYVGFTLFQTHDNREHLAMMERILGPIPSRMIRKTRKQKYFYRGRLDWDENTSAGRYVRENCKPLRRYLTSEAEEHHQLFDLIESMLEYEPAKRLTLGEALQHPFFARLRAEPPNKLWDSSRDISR

Compound | tested on | assay | system | setting | how to read | endpoint | result
C=C(NC(=O)c1csc(-c2nc3c(cc2O)-c2nc(cs2)C(=O)NC(C(C)O)C(=O)NC(=C(C)OC)c2nc(cs2)C(=O)NC2c4nc(cs4)C(=O)NC(COC(=O)c4c5c6c(cccc6n4O)COC(=O)C(OC4CC(C)(O)C(N(C)C)C(C)O4)C2OC5)c2nc-3cs2)n1)C(N)=O (stereo not shown) | – | – | Sprague-Dawley rats, both sexes, urine | intravenous, 6 mg/kg, 48 h | relative to: dose | urinary excretion unchanged | 0.1%
Cc1cc(Cl)cc(-c2ccnc3cc(CN4C(=O)C5C(C4=O)C5(C)C)sc23)c1C[C@@H]1CNCCO1 (stereo partly shown) | CHP-212 resistant cells (pooled) | PI flow cytometry | – | 0.1 µM, 24 h | – | cells in G2/M phase | 16.7% and 13.7% and 10.3%
C[C@@H]1CC[C@@H]([C@](O)(CNCc2ccccc2F)COCc2ccccc2)[C@H](OCc2ccccc2)C1 | A2780 | cell growth or viability, MTT | – | 30 µM, 72 h | – | inhibition | 100%
CC12CCCC(NS(=O)(=O)c3ccc(O)c(N)c3)(C1)C1CC(C)(C)C1CC2 (stereo not shown) | HT-29 | cell growth or viability, CCK-8 | – | 10 µM | – | inhibition | < 50%
CC(=O)N[C@@H](CC(=O)O)C(=O)N[C@@H](Cc1ccc(I)cc1)C(=O)N[C@@H](C)C(=O)N[C@@H](CC(=O)O)C(=O)COC(=O)c1c(C)cccc1C | THP-1 cells, LPS-primed | pyroptosis, LDH release | – | 25 µM, LPS 1 µg/mL, 4 h, with: nigericin 5 µM, 2 h | – | cell lysis | 66.6%
CN(C)C(=O)CNC(=O)c1ccc([C@H]2[C@@H](F)[C@@H](F)C[C@@H](F)[C@H]2F)cc1 | – | hepatocyte stability | cryopreserved mouse hepatocytes | 1 µM | – | hepatic clearance | 36 mL/min/kg
CCC(=CCc1c(O)cc2c(c1O)C(=O)CC(c1cc(O)ccc1OC)O2)CC (stereo not shown) | HeLa | cell growth or viability, MTT | – | 1.563 µM, 48 h | – | inhibition | -0.661%
N#C[C@@H]1CCCN1C(=O)CNC(=O)c1ccnc2ccc(OCCCN3CCN(C(=O)CCc4ccc5c(c4)CN4CCN6CC(=O)[O][68Ga-]([O]C(=O)C4)([O]5)[O]c4ccc(CCC(=O)N5CCN(CCCOc7ccc8nccc(C(=O)NCC(=O)N9CCC[C@H]9C#N)c8c7)CC5)cc4C6)CC3)cc12 | HT1080 cells expressing human FAP | – | – | 15 min, 37 °C | – | internalized fraction | 74.5 ± 2.1%
CC(C)c1ccc(N(C)c2ccc3c(c2)OCC[C@H]3CNc2cnccc2C(=O)O)cc1 | SK-CO-1 | cell viability, CellTiter-Glo | – | 7 days | – | IC50 | 30.6 nM
CCC(=CCc1c(O)cc2c(c1O)C(=O)CC(c1cccc(OC)c1O)O2)CC (stereo not shown) | HeLa | cell growth or viability, MTT | – | 50 µM, 48 h | – | inhibition | 96.3%
Cc1nn(-c2cccc(N)c2)c(=O)c2cnc(Nc3ccc(N4CCNCC4)cc3)nc12 | Dual specificity protein kinase CLK2 (CLK2, Homo sapiens, UniProt P49760) | kinase activity, inhibitor, SelectScreen kinase profiling | – | – | – | IC50 | > 10000 nM
CNS(=O)(=O)Nc1nccc(Cc2c(C)c3ccc(Oc4ncccc4F)cc3oc2=O)c1F | LS174T | cell viability | – | 7 days | – | IC50 | 6.23 nM
O=S(=O)(N[C@H]1CCO[C@@H](C2c3ccccc3CCc3ccccc32)C1)c1ccc(OC(F)(F)F)cc1 | D425 | immunoblot | – | concentration not given | – | I2PP2A protein level | increased
COc1ccccc1-c1ccncc1C(=O)Nc1nnc(OCc2ccc(Cl)cc2)s1 | Brca1 Δ11/Δ11 MEFs sgGFP | – | – | 20 µM | – | colony count | 10 and 5 and 7
CCN(CC)CC(=O)Nc1cccc(-n2cc(-c3ccc4ccc(-c5cn(-c6cccc(NC(=O)CN(CC)CC)c6)nn5)cc4c3)nn2)c1 | RCC4 | PCR array, refers to: F3 | – | 5 x IC50, 6 h, normoxia | relative to: untreated | fold regulation | -1.8
C=CC(=O)N1CCCC(n2c(=O)c3ncccc3n(Cc3ccc(Oc4ccccc4)cc3)c2=O)C1 (stereo not shown) | OCI-LY19 | annexin V/PI flow cytometry | – | 500 nM, 72 h | – | early apoptotic cells | 6.12%
COC1CN([C@H]2CC[C@H]([C@@]3(C)Oc4c(Cl)cc(C(=O)NCc5c(SC)cc(C)[nH]c5=O)c(C)c4O3)CC2)C1 | – | RNA-seq, refers to: ZMYND15 mouse homolog | mouse, HT-1376 xenograft, whole blood | dose not given | relative to: vehicle | log2 fold change | 1.93
C=CC(=O)Nc1cccc(Cn2ncc3cnc(Nc4cnn(CCOC)c4)nc32)c1 | LKB1 human | binding, KINOMEscan | – | 100 nM | lower = stronger binding | percent of control | 61%
O=C(N/N=C/c1ccc(C[n+]2ccccc2)cc1)C(=O)N/N=C/c1ccc(C[n+]2ccccc2)cc1 | 22CTA telomeric G4-DNA antiparallel | FRET melting | – | 1 µM, K10 buffer, DNA 0.2 µM, with: ds26 10 µM | – | ΔTm | 5.3 ± 2.4 °C
O=C(C[Se]C(=O)c1ccc2ccccc2n1)Nc1cccc(C(F)(F)F)c1 | NCI60 leukemia subpanel | cell growth | – | 10 µM, 48 h, one-dose | – | mean growth percent | -80.8%
Cc1ncsc1-c1ccc(C(C)NC(=O)C2CC(O)CN2C(=O)C(NC(=O)CCCCCCCCCCN2CCCC(Nc3ncc(Cl)c(Nc4ccccc4S(=O)(=O)C(C)C)n3)C2)C(C)(C)C)cc1 (stereo not shown) | 22Rv1 | RNA-seq, refers to: TRPV1 mRNA | – | concentration not given | relative to: DMSO | log2 fold change | -1.63
Nc1ncc(-c2cc(-c3cnn(CC(F)(F)F)c3)ncc2F)nc1C(=O)NC1CNCC(F)C1 (stereo not shown) | PHKG2 | KINOMEscan | – | 1 µM | relative to: DMSO control | remaining binding | 100%
C=CC(=O)N1[C@H](c2ccc3c(c2)OCO3)c2[nH]c3ccccc3c2C[C@@H]1C(=O)N1CCN(C)CC1 | human cyclin E1 N112C-3xFLAG:CDK2 | co-IP with TMT proteomics, refers to: DDX3X | – | concentration not given, O00571 | relative to: wild type DMSO | relative co-enrichment | 91%
CN1CCC(c2ccc(-c3ccc([C@H]4[C@@H](F)[C@@H](F)C[C@@H](F)[C@H]4F)cc3)cn2)CC1 | – | hepatocyte stability | cryopreserved rat hepatocytes | 1 µM | – | hepatic clearance | 33 mL/min/kg
CN1CCCNC(=O)c2cccc(c2)C(=O)NCCCN(C)CCCNc2cccc3c2C(=O)c2cccc(c2C3=O)NCCC1 | SAS | RNA-Seq, refers to: MESD mRNA | – | 1 µM, 6 h | relative to: untreated cells | log2 fold change | -0.474
CCN(C(=O)c1cc(F)ccc1Oc1nncnc1N1CCC2(C1)CN([C@H](CCCN(C)CCOC)C(C)C)C2)C(C)C | CLS-439 | cell growth | – | 72 h | – | GI50 | > 10000 nM
CC12CCCC(NS(=O)(=O)C3CCCCC3)(C1)C1CC(C)(C)C1CC2 (stereo not shown) | HT-29 | cell growth or viability, CCK-8 | – | 10 µM | – | inhibition | < 50%
O=C(CCc1ccc(CNC(C(=O)OC2CCCC2)C2CCCCC2)cn1)NO (stereo not shown) | CD14+ monocytes | – | human whole blood | concentration not given, 12 h | – | monocyte count | decreased

For quick reference, copied from above:
Compound | tested on | assay | system | setting | how to read | endpoint | result
Nc1ncc(-c2cc(-c3cnn(CC(F)(F)F)c3)ncc2F)nc1C(=O)NC1CNCC(F)C1 (stereo not shown) | PHKG2 | KINOMEscan | – | 1 µM | relative to: DMSO control | remaining binding | 100%
CCC(=CCc1c(O)cc2c(c1O)C(=O)CC(c1cc(O)ccc1OC)O2)CC (stereo not shown) | HeLa | cell growth or viability, MTT | – | 1.563 µM, 48 h | – | inhibition | -0.661%
O=S(=O)(N[C@H]1CCO[C@@H](C2c3ccccc3CCc3ccccc32)C1)c1ccc(OC(F)(F)F)cc1 | D425 | immunoblot | – | concentration not given | – | I2PP2A protein level | increased
CC12CCCC(NS(=O)(=O)C3CCCCC3)(C1)C1CC(C)(C)C1CC2 (stereo not shown) | HT-29 | cell growth or viability, CCK-8 | – | 10 µM | – | inhibition | < 50%
